Measured values gathered from unrelated publications.
Each numbered part is a random draw from the data of one study; scales do not carry over between parts. Substitutions count along the parent as printed.
UniProt Q9UQM7, sequence (whole entry, looked up): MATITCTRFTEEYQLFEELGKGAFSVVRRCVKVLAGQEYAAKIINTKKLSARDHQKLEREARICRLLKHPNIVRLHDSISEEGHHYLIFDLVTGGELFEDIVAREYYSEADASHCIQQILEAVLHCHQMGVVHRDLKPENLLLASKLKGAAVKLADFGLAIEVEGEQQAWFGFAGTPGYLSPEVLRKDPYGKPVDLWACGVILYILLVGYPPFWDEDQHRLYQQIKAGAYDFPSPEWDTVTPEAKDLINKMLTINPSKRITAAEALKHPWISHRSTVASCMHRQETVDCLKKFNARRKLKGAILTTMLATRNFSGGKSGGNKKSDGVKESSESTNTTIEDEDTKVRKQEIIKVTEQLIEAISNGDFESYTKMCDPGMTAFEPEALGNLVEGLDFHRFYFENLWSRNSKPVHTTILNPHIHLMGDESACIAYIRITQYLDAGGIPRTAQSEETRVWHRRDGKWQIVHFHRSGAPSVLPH

Study 1
Target: Prothrombin, mature alpha-thrombin (F2, Homo sapiens, UniProt P00734)
Method: aptamer microarray, sandwich
Form: DNA with 2'F-ANA
Sample: in vitro
Concentration: 200 nM
Setting: whole 15-mer aptamer, many near background
Together with: Cy3 exosite-II aptamer, 400 nM
Reading: higher = stronger binding
Oligonucleotide: GGTTGGTGTGGTTGG
Modification	mean fluorescence intensity
2'F-ANA at 1 4 5 6 8 9 11 12 13 14	56.2 a.u.
2'F-ANA at 1 2 5 6 9 10 11 12 13 14 15	48.6 a.u.
2'F-ANA at 3 4 5 7 8 12 13 14 15	79.7 a.u.
2'F-ANA at 1 2 3 4 5 6 7 12 14 15	80.2 a.u.
2'F-ANA at 6 10 13 14 15	116 a.u.
2'F-ANA at 3 5 6 7 8 11 15	96.6 a.u.
2'F-ANA at 3 5 7 9 13	81.5 a.u.
2'F-ANA at 3 5 8 9 10 14	84.1 a.u.

Study 2
Target: CREBRF, bZIP domain (human)
Method: DHFR protein complementation
Sample: yeast
Setting: single substitutions, most at no-binding floor
Relative to: wild-type JUN-FOS pair
Reading: higher = stronger binding
Starting sequence: JUN, bZIP domain (human); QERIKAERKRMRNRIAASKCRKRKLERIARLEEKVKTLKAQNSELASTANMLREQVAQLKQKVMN; partner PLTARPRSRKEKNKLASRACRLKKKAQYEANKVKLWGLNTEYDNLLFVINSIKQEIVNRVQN
Variant	binding fitness [natural log]
E44T	-1.46
L45G	-1.55
S43R	-1.49
E54D	-1.53
E44L	-1.36
Q55L	-1.34
A46S	-1.46
K39R	-1.28

Single results of other studies
Structure (SMILES)	target or system	effect on	method	sample	concentration	measurement	result
Cc1nc(Cc2cccc(C(F)(F)F)c2)sc1-c1ccc(C(N)=O)nc1	Proto-oncogene tyrosine-protein kinase Src (SRC, Homo sapiens, UniProt P12931)	cell-free assay	competition with immobilised ligand		1 µM	remaining binding	80%
CCOC(=O)[C@@H]1CSCC(=O)N[C@@H](CC)C(=O)N(C)[C@@H](C)C(=O)N[C@@H](CC(C)C)C(=O)N2CCC[C@@H]2C(=O)N(CC)CC(=O)N[C@@H](CC(C)C)C(=O)N(C)[C@H](C)C(=O)N[C@@H](CC(C)C)C(=O)N1C				hydrocarbon/water		logD	0.928
CCCOc1ccc([C@H]2[C@H](C(=O)O)[C@@H](c3ccc4c(c3)OCO4)CN2CC(=O)Nc2c(CC)cccc2CC)cc1	Calcium/calmodulin-dependent protein kinase type II subunit alpha (CAMK2A, Homo sapiens, UniProt Q9UQM7)	cell-free assay	competition with immobilised ligand		1 µM	remaining binding	90%

Excerpt of the above (study 1):
Modification	mean fluorescence intensity
2'F-ANA at 1 2 5 6 9 10 11 12 13 14 15	48.6 a.u.
2'F-ANA at 3 4 5 7 8 12 13 14 15	79.7 a.u.
2'F-ANA at 1 2 3 4 5 6 7 12 14 15	80.2 a.u.
